Measured values collected from several papers.
A part holds a random share of what one study measured.

Series 1 — technique: protein-binding microarray; form: double-stranded DNA, one strand shown; medium: in vitro; tested at: 250 nM; setting: 60-bp whole probe; added: salmon DNA 0.4 mg/ml; baseline: random background probes; direction: higher = stronger binding; measurement: log fluorescence
Target: Interferon regulatory factor 7, full length, phosphomimetic (IRF7, Homo sapiens, UniProt Q92985, residues 1-503, S101K/S471D/S472D/S475D/S476D/S477D/S483D/S484D/S487D)
Sequence of UniProt Q92985 (whole entry, unmodified, looked up): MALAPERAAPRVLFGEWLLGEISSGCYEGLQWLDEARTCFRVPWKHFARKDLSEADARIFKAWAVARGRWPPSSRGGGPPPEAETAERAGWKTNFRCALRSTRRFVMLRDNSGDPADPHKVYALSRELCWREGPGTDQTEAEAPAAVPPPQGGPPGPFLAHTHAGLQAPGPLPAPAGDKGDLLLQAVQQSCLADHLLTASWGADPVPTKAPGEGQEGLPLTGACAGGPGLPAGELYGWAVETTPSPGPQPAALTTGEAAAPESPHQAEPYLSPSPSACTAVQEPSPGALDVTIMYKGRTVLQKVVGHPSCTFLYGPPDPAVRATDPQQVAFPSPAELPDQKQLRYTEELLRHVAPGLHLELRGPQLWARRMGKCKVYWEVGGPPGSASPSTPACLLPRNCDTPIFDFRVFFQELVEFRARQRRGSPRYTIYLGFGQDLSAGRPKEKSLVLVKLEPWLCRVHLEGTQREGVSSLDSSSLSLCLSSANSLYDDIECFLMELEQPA
GCCTAGCACTTAGTTTTCAGTTTCGATTAGTGCTAGGTCTTGATTCGCTTGACGCTGCTG: 10.5 z-score
GCCTAGCACGGGCACATCTTAACATATGAGTGCTAGGTCTTGATTCGCTTGACGCTGCTG: 0.063 z-score
GCCTAGCACTCACCTCTAGGTTTTCTACTGTGCTAGGTCTTGATTCGCTTGACGCTGCTG: -0.277 z-score
GCCTAGCACGACGGTTTCTACTATCGGGACGTGCTAGTCTTGATTCGCTTGACGCTGCTG: 1.41 z-score

Series 2 — technique: RNA Bind-n-Seq; form: RNA; medium: in vitro; tested at: 1 µM; setting: whole 134-nt RNA, ends assumed; added: 150 mM KCl; baseline: input library; direction: higher = stronger binding; measurement: log2 enrichment
Target: Ras GTPase-activating protein-binding protein 1, C-terminal RGG region (G3BP1, Homo sapiens, UniProt Q13283)
Sequence of UniProt Q13283 (whole entry, looked up): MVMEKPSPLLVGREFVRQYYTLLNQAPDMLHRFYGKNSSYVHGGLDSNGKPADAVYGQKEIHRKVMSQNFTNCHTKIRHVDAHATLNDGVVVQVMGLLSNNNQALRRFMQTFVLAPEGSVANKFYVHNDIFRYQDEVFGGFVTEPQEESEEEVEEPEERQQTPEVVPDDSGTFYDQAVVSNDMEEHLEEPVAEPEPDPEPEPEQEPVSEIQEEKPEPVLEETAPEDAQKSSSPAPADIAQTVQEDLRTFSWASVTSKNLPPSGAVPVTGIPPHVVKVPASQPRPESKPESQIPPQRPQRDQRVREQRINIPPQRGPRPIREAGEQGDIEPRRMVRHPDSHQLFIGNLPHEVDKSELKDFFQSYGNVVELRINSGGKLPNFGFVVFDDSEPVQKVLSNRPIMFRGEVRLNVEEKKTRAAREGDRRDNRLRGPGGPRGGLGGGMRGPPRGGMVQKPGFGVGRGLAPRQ
GGGAGUUCUACAGUCCGACGAUCCAAGUCCUGUGCUACACAUCGUAUGUACCGAAUCGGGUUUUUUUGGGAGGGUGGGAAAGUAUUAUGUUACGCCGUUCGGAUCUGCACUUCUGGAAUUCUCGGGUGUCAAGG: 1.19
GGGAGUUCUACAGUCCGACGAUCCAAGUCCUGUGCUACACAUCGUAUGUACCGAAUCGGGGUGGGGAGGGGAAAGGGGAAAGUAUUAUGUUACGCCGUUCGGAUCUGCACUUCUGGAAUUCUCGGGUGUCAAGG: 3.07
GGGAGUUCUACAGUCCGACGAUCAAGUCCUGUGCUACACAUCGUAUGUACCGAAUCGGGAAAGGGAAAAAGGGUUUGGGAAAGUAUUAUGUUACGCCGUUCGGAUCUGCACUUUGGAAUUCUCGGGUGUCAAGG: 1.33

Series 3 — technique: RNAcompete; form: RNA; medium: in vitro; tested at: 20 nM; setting: 7-mer, probes averaged, single round; baseline: mean of 7-mers; direction: higher = stronger binding; measurement: 7-mer Z-score
Target: PABPC1L2, full length, GST fusion (mouse, UniProt A0ABA7IW68)
Construct (chain): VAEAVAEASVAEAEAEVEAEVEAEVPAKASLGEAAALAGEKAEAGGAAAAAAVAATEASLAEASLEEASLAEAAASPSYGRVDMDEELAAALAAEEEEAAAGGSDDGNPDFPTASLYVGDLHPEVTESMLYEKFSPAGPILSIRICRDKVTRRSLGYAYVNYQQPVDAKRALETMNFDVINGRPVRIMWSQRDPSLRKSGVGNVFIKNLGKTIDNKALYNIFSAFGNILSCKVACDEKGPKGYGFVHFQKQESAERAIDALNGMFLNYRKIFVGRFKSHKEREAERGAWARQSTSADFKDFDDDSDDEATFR
ACGUUUG: -0.472
UUGACUG: -0.316
GACAGCU: -0.215
UGCGGGC: 0.0823
UGUUGUC: -0.454
AUCAGCC: -0.296

Other studies, line by line
PhoQ, residues 284 288 289 292 302 303 ALASRC
fold induction (PhoP, residues 12 14 15 18 19 VHSCL (Escherichia coli, UniProt P23836); Sort-seq, refers to: YFP reporter; E. coli; PhoQ-PhoP variant library, added: 10 µM Mg2+; baseline: high Mg2+ state, higher = stronger signaling): 18.9

For quick reference, copied from above (series 3):
AUCAGCC: -0.296
